Published values from different studies.
Protocols differ between the studies behind these lines. Numbers after ± are the reported error. Converted amounts (≈) assume the structure as drawn.
OPRM1: Mu-type opioid receptor (OPRM1, Homo sapiens, UniProt P35372)
UniProt P35372, sequence (whole entry, looked up): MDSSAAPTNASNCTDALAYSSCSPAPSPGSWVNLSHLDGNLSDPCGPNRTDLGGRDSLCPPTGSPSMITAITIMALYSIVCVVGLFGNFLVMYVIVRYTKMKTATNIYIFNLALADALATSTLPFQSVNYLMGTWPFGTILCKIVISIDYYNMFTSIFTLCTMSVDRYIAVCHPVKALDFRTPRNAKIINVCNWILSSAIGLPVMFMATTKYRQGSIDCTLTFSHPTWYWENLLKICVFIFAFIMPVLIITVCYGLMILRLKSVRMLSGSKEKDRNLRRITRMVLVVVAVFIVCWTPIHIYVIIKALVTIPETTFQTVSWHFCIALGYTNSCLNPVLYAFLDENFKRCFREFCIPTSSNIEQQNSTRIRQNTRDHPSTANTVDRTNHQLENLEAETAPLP

CC(C)C[C@H](NC(=O)[C@H](CO[C@@H]1O[C@H](CO)[C@@H](O)[C@H](O)[C@H]1O)NC(=O)[C@H](CCCCN)NC(=O)[C@H](CC(C)C)NC(=O)CNC(=O)[C@H](CCCCN)NC(=O)[C@H](CCC(=O)O)NC(=O)[C@H](C)NC(=O)[C@H](CC(C)C)NC(=O)[C@H](CC(N)=O)NC(=O)[C@@H]1CCCN1C(=O)[C@H](CC(C)C)NC(=O)[C@H](Cc1ccccc1)NC(=O)CNC(=O)[C@H](NC(=O)[C@@H](N)Cc1ccc(O)cc1)[C@H](C)O)C(N)=O — Ki (OPRM1; radioligand displacement; CHO membranes; 60 min, pH 7.5, 25 °C, added: 0.25 nM [3H]DAMGO): 2.2 ± 0.3 nM
CC[C@H](C)[C@H](NC(=O)[C@H](CCCCN)NC(=O)[C@H](CCCCN)NC(=O)[C@H](CC(C)C)NC(=O)[C@H](Cc1c[nH]c2ccccc12)NC(=O)CN)C(=O)NCC(=O)N[C@@H](CCCCN)C(=O)N[C@@H](CCCCN)C(=O)N[C@H](C(=O)N[C@@H](CCC(=O)O)C(=O)N[C@@H](CCCNC(=N)N)C(=O)N[C@H](C(=O)NCC(=O)N[C@@H](CCC(N)=O)C(=O)N[C@@H](Cc1c[nH]cn1)C(=O)N[C@H](C(=O)N[C@@H](CCCNC(=N)N)C(=O)N[C@@H](CC(=O)O)C(=O)N[C@@H](C)C(=O)N[C@H](C(=O)N[C@H](C(=O)N[C@@H](CCC(N)=O)C(=O)N[C@H](C(=O)N[C@H](C(=O)NCC(=O)N[C@H](C(=O)N[C@@H](C)C(=O)N[C@@H](CCC(N)=O)C(=O)N[C@@H](CCC(N)=O)C(=O)N[C@@H](C)C(=O)N[C@@H](C)C(=O)N[C@@H](CC(N)=O)C(=O)N[C@H](C(=O)N[C@@H](C)C(=O)N[C@@H](C)C(=O)N[C@H](C(=O)N[C@@H](CC(C)C)C(=O)N[C@@H](CCCCN)C(N)=O)[C@@H](C)O)C(C)C)C(C)C)[C@@H](C)CC)[C@@H](C)O)[C@@H](C)CC)[C@@H](C)O)[C@@H](C)O)C(C)C)[C@@H](C)CC — MIC (Escherichia coli; broth microdilution; RKI 6 A-6, CAMHB with 10% mouse serum; 150 mM NaCl): 2 µg/mL (≈ 0.476 µM)
CCCCCCCCCCCCCCCC(=O)N[C@@H](CCC(=O)NCCOCCOCCC(=O)NCCOCCOCCC(=O)NCCCC[C@H](NC(=O)[C@H](CC(=O)O)NC(=O)[C@H](CC(C)C)NC(=O)[C@H](Cc1ccc(O)cc1)NC(=O)[C@H](CCCCN)NC(=O)[C@H](CO)NC(=O)[C@H](Cc1ccc(O)cc1)NC(=O)[C@H](CC(=O)O)NC(=O)[C@H](CO)NC(=O)[C@@H](NC(=O)[C@H](Cc1ccccc1)NC(=O)[C@@H](NC(=O)CNC(=O)[C@H](CCC(N)=O)NC(=O)[C@@H](CO)NC(=O)[C@@H](N)Cc1c[nH]cn1)[C@@H](C)O)[C@@H](C)O)C(=O)N[C@@H](CCCNC(=N)N)C(=O)N[C@@H](CCCNC(=N)N)C(=O)N[C@@H](C)C(=O)N[C@@H](CCC(N)=O)C(=O)N[C@@H](CC(=O)O)C(=O)N[C@@H](Cc1ccccc1)C(=O)N[C@H](C(=O)N[C@@H](CCC(N)=O)C(=O)N[C@@H](Cc1c[nH]c2ccccc12)C(=O)N[C@@H](CC(C)C)C(=O)N[C@@H](CC(C)C)C(=O)N[C@@H](CC(N)=O)C(=O)N[C@H](C(=O)NCC(=O)NCC(=O)N1CCC[C@H]1C(=O)N[C@@H](CO)C(=O)N[C@@H](CO)C(=O)NCC(=O)N[C@@H](C)C(=O)N1CCC[C@H]1C(=O)N1CCC[C@H]1C(=O)N1CCC[C@H]1C(=O)N[C@@H](CO)C(N)=O)[C@@H](C)O)C(C)C)C(=O)O — serum enzyme activity (refers to: ALP; rhesus monkey, female; subcutaneous, 20 µg/kg once daily, 28 days): 329 ± 105 U/L
COCCCN1CCn2cc(C(=O)NCc3ccc(F)cc3F)c(=O)c(O)c2C1=O — EC50 (human immunodeficiency virus 1; single-round vector infection; integrase S230N): 6.6 ± 0.3 nM
CC(C)C[C@H](NC(=O)[C@H](CO)NC(=O)[C@H](CCCCN)NC(=O)[C@H](CC(C)C)NC(=O)[C@H](C)NC(=O)[C@H](CCCCN)NC(=O)[C@H](CCC(=O)O)NC(=O)[C@H](C)NC(=O)[C@H](CC(C)C)NC(=O)[C@H](CC(N)=O)NC(=O)[C@@H]1CCCN1C(=O)[C@H](CC(C)C)NC(=O)[C@H](Cc1ccccc1)NC(=O)CNC(=O)[C@H](NC(=O)[C@@H](N)Cc1ccc(O)cc1)[C@H](C)O)C(N)=O — Ki (OPRM1; radioligand displacement; CHO membranes; 60 min, pH 7.5, 25 °C, added: 0.25 nM [3H]DAMGO): 14 ± 2.3 nM
CC[C@H](C)[C@@H]([C@@H](CC(=O)N1CCC[C@H]1[C@H](OC)[C@@H](C)C(=O)N[C@H](C)[C@@H](O)c1ccccc1)OC)N(C)C(=O)[C@@H](NC(=O)[C@H](C(C)C)N(C)C(=O)OCc1ccc(NC(=O)[C@H](CCCNC(N)=O)NC(=O)[C@@H](NC(=O)CCCC(=O)NCCC(=O)N(C)CC(=O)N(C)CC(=O)N(C)CC(=O)N(C)CC(=O)N(C)CC(=O)N(C)CC(=O)N(C)CC(=O)N(C)CC(=O)N(C)CC(=O)N(C)CC(=O)N[C@H]2CSCCC(=O)N3CN4CN(C3)C(=O)CCSC[C@H](NC(=O)[C@@H](CC(=O)O)NC(=O)[C@H](Cc3cccc5ccccc35)NC(=O)[C@@H]3CCCN3C2=O)C(=O)N[C@@H](CCSC)C(=O)N[C@@H](CCCCNC(=N)N)C(=O)N[C@@H](CC(=O)O)C(=O)N[C@@H](Cc2c[nH]c3ccccc23)C(=O)N[C@@H](CO)C(=O)N[C@@H]([C@@H](C)O)C(=O)N2CCC[C@H]2C(=O)N2C[C@H](O)C[C@H]2C(=O)N[C@@H](Cc2c[nH]c3ccccc23)C(=O)N[C@H](C(N)=O)CSCCC4=O)C(C)C)cc1)C(C)C — clearance (mouse, plasma; intravenous, 3 mg/kg): 3.5 mL/min/kg
O=C(NC1CCN(c2ncnc3[nH]cnc23)CC1)c1cccc(NS(=O)(=O)c2ccc(C(F)(F)F)cc2)c1 — inhibition (monkeypox virus E1/E12; 0.04883 µM): 14.8%
Cc1cc(/C=C/C#N)cc(C)c1-n1cnc2cnc(Nc3ccc(C#N)cc3)nc21 — EC50 (HIV-1; viral replication, single-round infection; RT mutant D67E): 1.1 ± 0.4 nM
Cn1ccn2cc(C(=O)NCc3ccc(F)cc3F)c(=O)c(O)c2c1=O — EC50 (human immunodeficiency virus 1; single-round vector infection; integrase S230N): 7.9 ± 0.9 nM
COc1ccc(-c2cnnn2-c2cc(OC)c(OC)c(OC)c2)cc1N — EC50 (RKO; cytotoxicity, nuclei counting; 24 h): 9.47 ± 0.59 nM
Nc1ccn(C2CCC(OC(C(=O)O)P(=O)(O)O)C2)c(=O)n1 (racemic) — fold resistance (HIV-1 reverse transcriptase F61A; enzyme activity, inhibitor; added: poly(rI)·oligo(dC), [3H]dCTP; baseline: mutant over wild type): 5.2 fold
Cc1cc(/C=C/C#N)cc(C)c1Nc1nc(Nc2ccc(C#N)cc2)ncc1N — EC50 (HIV-1; viral replication, single-round infection; RT mutant V106A/L234I): 0.3 ± 0.1 nM
CC(C)CC(C)n1ccn2cc(C(=O)NCc3ccc(F)cc3F)c(=O)c(O)c2c1=O (stereo not shown) — EC50 (human immunodeficiency virus 1; single-round vector infection; integrase G140S/Q148H): 442.9 ± 2.7 nM

Repeated from above:
Nc1ccn(C2CCC(OC(C(=O)O)P(=O)(O)O)C2)c(=O)n1 (racemic) — fold resistance (HIV-1 reverse transcriptase F61A; enzyme activity, inhibitor; added: poly(rI)·oligo(dC), [3H]dCTP; baseline: mutant over wild type): 5.2 fold
CC[C@H](C)[C@@H]([C@@H](CC(=O)N1CCC[C@H]1[C@H](OC)[C@@H](C)C(=O)N[C@H](C)[C@@H](O)c1ccccc1)OC)N(C)C(=O)[C@@H](NC(=O)[C@H](C(C)C)N(C)C(=O)OCc1ccc(NC(=O)[C@H](CCCNC(N)=O)NC(=O)[C@@H](NC(=O)CCCC(=O)NCCC(=O)N(C)CC(=O)N(C)CC(=O)N(C)CC(=O)N(C)CC(=O)N(C)CC(=O)N(C)CC(=O)N(C)CC(=O)N(C)CC(=O)N(C)CC(=O)N(C)CC(=O)N[C@H]2CSCCC(=O)N3CN4CN(C3)C(=O)CCSC[C@H](NC(=O)[C@@H](CC(=O)O)NC(=O)[C@H](Cc3cccc5ccccc35)NC(=O)[C@@H]3CCCN3C2=O)C(=O)N[C@@H](CCSC)C(=O)N[C@@H](CCCCNC(=N)N)C(=O)N[C@@H](CC(=O)O)C(=O)N[C@@H](Cc2c[nH]c3ccccc23)C(=O)N[C@@H](CO)C(=O)N[C@@H]([C@@H](C)O)C(=O)N2CCC[C@H]2C(=O)N2C[C@H](O)C[C@H]2C(=O)N[C@@H](Cc2c[nH]c3ccccc23)C(=O)N[C@H](C(N)=O)CSCCC4=O)C(C)C)cc1)C(C)C — clearance (mouse, plasma; intravenous, 3 mg/kg): 3.5 mL/min/kg
